Results pooled from the literature.
Each line is one published result; not all experiments were run side by side. Numbers after ± are the reported error.
Target: Acetylcholinesterase (ache, Electrophorus electricus, UniProt O42275)
UniProt O42275, sequence (whole entry, looked up): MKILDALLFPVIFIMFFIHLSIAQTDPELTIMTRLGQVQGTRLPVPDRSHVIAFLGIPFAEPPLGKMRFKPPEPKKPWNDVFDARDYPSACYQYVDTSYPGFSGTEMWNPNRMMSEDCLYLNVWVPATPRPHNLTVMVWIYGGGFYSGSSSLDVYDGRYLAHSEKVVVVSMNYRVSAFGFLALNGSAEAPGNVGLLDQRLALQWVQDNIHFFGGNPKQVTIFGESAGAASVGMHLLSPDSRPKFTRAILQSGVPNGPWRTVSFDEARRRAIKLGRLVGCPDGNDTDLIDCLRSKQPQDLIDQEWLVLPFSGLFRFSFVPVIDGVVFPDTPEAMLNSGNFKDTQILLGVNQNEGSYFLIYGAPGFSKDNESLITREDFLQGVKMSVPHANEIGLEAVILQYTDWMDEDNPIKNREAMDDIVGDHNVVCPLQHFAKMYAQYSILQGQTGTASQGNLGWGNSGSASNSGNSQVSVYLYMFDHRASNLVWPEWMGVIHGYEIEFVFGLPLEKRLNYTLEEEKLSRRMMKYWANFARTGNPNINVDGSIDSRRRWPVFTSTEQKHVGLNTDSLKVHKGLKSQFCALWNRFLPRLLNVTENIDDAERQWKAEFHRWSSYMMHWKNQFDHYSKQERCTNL

Compound | effect on | action | method | concentration | quantity | result
O=C(/C=C/c1ccccc1Br)c1cc2ccccc2oc1=O | enzyme activity | inhibitor |  | 10 µM | remaining activity | 78.2%
COc1ccnc(Nc2c3c(nc4ccc(Cl)cc24)CCCC3)c1 | enzyme activity | inhibitor | Ellman | 50 µM | inhibition | 33.6%
O=c1c(Nc2ccc(O)cc2)c(NC2CCN(Cc3ccccc3)CC2)c1=O | enzyme activity | inhibitor | Ellman | 12.5 µM | inhibition | 53.5%
O=C(/C=C/c1ccccc1)c1cc2ccccc2oc1=O |  |  |  | 10 µM | remaining activity | 86 ± 3.6%
COc1ccc([C@@H]2N=NC(NCCc3c[nH]c4ccc(C)cc34)=NC2=O)cc1 | peripheral site binding |  |  | 1 µM | propidium displacement | 58%
O=c1c(NCCc2ccc(Br)cc2)c(NC2CCN(Cc3ccccc3)CC2)c1=O | enzyme activity | inhibitor | Ellman | 12.5 µM | inhibition | 30.1%
Cc1nc(-c2ccc(Cl)cc2)nc2sc3c(=O)n(CCN4CCOCC4)cnc3c12 | peripheral site binding |  |  | 3 µM | propidium displacement | 58%
COc1ccc(Nc2c3c(nc4ccc(Cl)cc24)CCCC3)nc1 | enzyme activity | inhibitor | Ellman | 50 µM | inhibition | 72.5%
COc1ccc2c(c1OC)CC1c3c(cc4c(c3-2)OCO4)CC[N+]1(C)[O-] (single isomer, unassigned; (-)) | enzyme activity | inhibitor | Ellman | up to 0.1 µg/mL | IC50 | inactive
Clc1ccc(Nc2c3c(nc4ccccc24)CCCC3)cc1 | enzyme activity | inhibitor | Ellman | 100 µM | inhibition | 59.6%
O=c1c(NCCc2ccccc2)c(NC2CCN(Cc3ccccc3)CC2)c1=O | enzyme activity | inhibitor | Ellman | 12.5 µM | inhibition | 45.5%
COc1ccnc(Nc2c3c(nc4cc(C)ccc24)CCCC3)c1 | enzyme activity | inhibitor | Ellman | 50 µM | inhibition | 76%
Cc1ccc(CCNc2c(NC3CCN(Cc4ccccc4)CC3)c(=O)c2=O)cc1 | enzyme activity | inhibitor | Ellman | 25 µM | inhibition | 52.2%
Cc1cccc(Nc2c3c(nc4ccccc24)CCCC3)n1 | enzyme activity | inhibitor | Ellman | 100 µM | inhibition | 44.7%
Cc1ccc(CNc2c(NC3CCN(Cc4ccccc4)CC3)c(=O)c2=O)cc1 | enzyme activity | inhibitor | Ellman | 25 µM | inhibition | 60.3%
COc1ccc2c(c1OC)C(=O)c1nccc3cc4c(c-2c13)OCO4 | enzyme activity | inhibitor | Ellman | up to 0.1 µg/mL | IC50 | inactive
COc1ccnc(Nc2c3c(nc4ccccc24)CCCC3)c1 | enzyme activity | inhibitor | Ellman | 100 µM | inhibition | > 90%
O=C(/C=C/c1cccc(Cl)c1)c1cc2ccccc2oc1=O | enzyme activity | inhibitor |  | 10 µM | remaining activity | 77.1%
O=c1oc2c(CNCCc3cccc(F)c3)c(O)ccc2c2c1CCC2 | peripheral site binding |  |  | 3 µM | propidium displacement | 100%
Cc1cc(O)c2c(c1)C(=O)c1c(O)ccc(O)c1C2=O | peripheral anionic site binding |  | propidium iodide competition | 50 µM | propidium iodide displacement | 69.2%
O=C(/C=C/c1ccccc1F)c1cc2ccccc2oc1=O | enzyme activity | inhibitor |  | 10 µM | remaining activity | 69.6%
COc1ccc(CCNc2c(NC3CCN(Cc4ccccc4)CC3)c(=O)c2=O)cc1OC | enzyme activity | inhibitor | Ellman | 25 µM | inhibition | 59.3%
COCCN1COc2c(cc3c4c(c(=O)oc3c2C)CCC4)C1 | peripheral site binding |  |  | 1 µM | propidium displacement | 42%
O=c1c(NCc2ccc(Br)cc2)c(NC2CCN(Cc3ccccc3)CC2)c1=O | enzyme activity | inhibitor | Ellman | 25 µM | inhibition | 54.1%
Cc1ccc2c(Nc3ccc4ccccc4n3)c3c(nc2c1)CCCC3 | enzyme activity | inhibitor | Ellman | 50 µM | inhibition | 25.3%
O=C(/C=C/c1ccc(Cl)cc1)c1cc2ccccc2oc1=O | enzyme activity | inhibitor |  | 10 µM | remaining activity | 76.9%
COc1ccnc(Nc2c3c(nc4ccccc24)CCC(C)C3)c1 (stereo not shown) | enzyme activity | inhibitor | Ellman | 50 µM | inhibition | 49.9%
COc1ccc(CNc2c(NC3CCN(Cc4ccccc4)CC3)c(=O)c2=O)cc1 | enzyme activity | inhibitor | Ellman | 25 µM | inhibition | 65.9%
